Experimental data collected from several papers.
Each line is one published result; not all experiments were run side by side. Values joined by “and” are separate records of one study, mostly repeats; a detail may differ. Numbers after ± are the reported error.

`Cc1cc(C)cc(NC(=O)CCN2CCCCCC2)c1` — result for “third-quartile larval motion”: 10.8 ± 2.4 pixels/frame (locomotor activity in dark; Danio rerio larvae, 7 dpf, well of 10 larvae; 10 µM, minute 1, dark).
`COc1ccccc1-c1ccncc1C(=O)Nc1nnc(OCc2ccc(Cl)cc2)s1` has a colony survival of 92.7% (Brca1 Δ11/Δ11 Polq-/- MEF, Mus musculus; 1.25 µM; relative to: 0 µM).
Under “body weight loss”, `CC[C@H](C)[C@@H](C(=O)N[C@@H](CC(C)C)C(=O)N[C@@H](CO)C(=O)N[C@@H](CO)C(=O)N[C@H](C(=O)N[C@@H](CCC(=O)O)C(=O)N[C@H](C(=O)NCC(=O)N[C@@H](CO)C(=O)NCC(=O)N[C@H](C(=O)N1C[C@H](O)C[C@H]1C(N)=O)[C@@H](C)O)C(C)C)[C@@H](C)O)N(C)C(=O)[C@H](C)NC(=O)CN(C)C(=O)[C@H](Cc1ccccc1)NC(=O)[C@H](CO)NC(=O)[C@H](CO)NC(=O)[C@H](CCCNC(=N)N)NC(=O)[C@@H](NC(=O)[C@H](CC(C)C)NC(=O)[C@H](Cc1ccccc1)NC(=O)[C@H](Cc1c[nH]cn1)NC(=O)[C@H](C)NC(=O)[C@H](CC(C)C)NC(=O)[C@H](CCCNC(=N)N)NC(=O)[C@H](CCC(=O)O)NC(=O)[C@@H](NC(=O)[C@H](C)NC(=O)[C@@H]1CSSC[C@H](NC(=O)[C@H](CCCNC(=N)N)NC(=O)CC[C@H](NC(=O)CCCCCCCCCCCCCCCCCCC(=O)O)C(=O)O)C(=O)NCC(=O)N[C@@H]([C@@H](C)O)C(=O)N[C@@H](C)C(=O)N[C@@H]([C@@H](C)O)C(=O)N1)[C@@H](C)O)[C@@H](C)O` is recorded as 6.4 ± 0.5% (male Sprague-Dawley rats; subcutaneous, 30 nmol/kg single dose, 96 h).
`CN1CCC[C@]1(C)/C=C/S(=O)(=O)NC(=O)Nc1c2c(cc3c1CCC3)CCC2` gave an IL-1β inhibition of 99.7% (human, whole blood ex vivo; 100 mg single dose, 6 h, single ascending dose, together with: LPS and ATP).
The tumour volume of `COc1ccc(NC(=O)c2ccc3[nH]c(-c4ccc(N(C)C)cc4)nc3c2)cn1` is reported as 176 mm3 and 221 mm3 and 190 mm3 and 405 mm3 and 319 mm3 (CT26, BALB/c nude mice, subcutaneous graft; dose not given, day 4).
The relative abundance of `CC(CCC(=O)NCc1ccc(C(=O)NO)cc1)C1CCC2C3C(O)CC4CC(O)CCC4(C)C3CCC12C` (stereo not shown) is reported as 24.5% (item: TCA; PCK rat (Pkhd1 mutant), peripheral blood; oral gavage, dose not given, 5 months; relative to: total bile acids).
For `C[C@@H]1O[C@@H](OC[C@H]2O[C@@H](Oc3c(-c4ccc(O)cc4)oc4cc(O)cc(O)c4c3=O)[C@H](O[C@@H]3O[C@@H](C)[C@H](O)[C@@H](O)[C@H]3O)[C@@H](O)[C@@H]2O)[C@H](O)[C@H](O)[C@H]1O`, lipid content read “decreased” (Oil Red O; 3T3-L1, mouse; 5 µM, day 8).
`COc1cccc(OCC(O)CN2CCN(c3ccccc3OC)CC2)c1` (stereo not shown): “third-quartile larval motion” 8.5 ± 1.6 pixels/frame (locomotor activity in dark; Danio rerio larvae, 7 dpf, well of 10 larvae; 10 µM, minute 7, dark).
Under “log2 fold change”, `COC1CN([C@H]2CC[C@H]([C@@]3(C)Oc4c(Cl)cc(C(=O)NCc5c(SC)cc(C)[nH]c5=O)c(C)c4O3)CC2)C1` is recorded as 0.511 (RNA-seq, item: RFX2 mouse homolog; mouse, HT-1376 xenograft, whole blood; dose not given; relative to: vehicle).
`COc1cc2nc(N3CCN(C(=O)C4CC5(CCC5)CO4)CC3)nc(N)c2cc1OC` (stereo not shown): “time to maximum BP lowering” 15 min (blood pressure; spontaneously hypertensive rat, male; oral, 3 mg/kg).
`O=C([O-])c1cccc(CN2Cc3cccc(n3)CN(Cc3cccc(C(=O)O)n3)Cc3cccc(n3)C2)n1.[Mn+2].[O-][Cl+3]([O-])([O-])[O-]` — result for “transmetallation rate constant”: 0.0001 s⁻¹ (HPLC; water; 25 °C, Mn complex dissociation, together with: 25 equiv Zn2+).
The normalised absorbance of `CCOC(=O)NN` is reported as 0.849 (hydrazine ligation kinetics, absorbance; concentration not given, 50 s, together with: 2-formylphenylboronic acid).
For `CN(C)C(=O)c1ccnc(N2Cc3cn(Cc4ccc(F)cc4F)nc3C2)n1`, “Cohen's d effect size” read -0.16 (immunohistochemistry, item: NeuN neuron density; mouse cuprizone diet, corpus callosum; dose not given, unit not given; relative to: healthy control).
`C[C@@H]1O[C@@H](Oc2ccc(CC(N)=O)cc2)[C@H](O)[C@H](O)[C@H]1O` gave a radical scavenging of 7.09 ± 0.76% (DPPH radical; 300 µg/mL).
For `NNC(=O)Cc1ccccc1`, the normalised absorbance was 0.246 (hydrazine ligation kinetics, absorbance; concentration not given, 10 s, together with: 2-formylphenylboronic acid).
For `Cc1cccc(NC(=O)CCN2CCN(C/C=C/c3ccccc3)CC2)c1`, “third-quartile larval motion” read 0.8 ± 0.4 pixels/frame (locomotor activity in dark; Danio rerio larvae, 7 dpf, well of 10 larvae; 10 µM, minute 1, dark).
For `CCC(=O)N[C@@H](C)C(=O)OCC(=O)N[C@@H](C)C(=O)O`, “chain scission rate constant” read 0.0025 h⁻¹ (water; pH 4, 50 °C).
`CO[C@H]1CCN(Cc2c(C)cc(C)c3[nH]ccc23)[C@H](CO)C1` gave an IC50 of 2.2 ± 1.1 µM (alternative pathway MAC formation, inhibitor; 50% human serum; together with: zymosan).
With `N[C@@H](CNC(=O)N[C@@H](CS)C(=O)NCC(=O)O)C(=O)O` the spontaneous alternation was 64.8 ± 1.3% (Y-maze; mouse C57BL/6, Aβ1–42 i.c.v. model; intranasal, 7.2 mg/mouse (200 mg/kg), started 3 days before Aβ).
`CC(=O)[O-].O.[Cu+2].[O-]c1ccc(Br)cc1C=NCCN1CCOCC1` gave an inhibition of 43.5% (nitric oxide scavenging; 200 µM).
`O=C(NCC1OC2CCC=CCCC2O1)c1ccc(F)nc1` (stereo not shown): “observed rate constant kobs” 233 ± 8.16 s⁻¹ (IEDDA cycloaddition, substrate, stopped-flow spectrophotometry; water/methanol 45:55; 1 mM, 298 K, together with: 3,6-di(2-pyridyl)-tetrazine 0.05 mM).
`Cc1cc(NC(=O)CCN2CCCCC2)ccc1Br` — result for “third-quartile larval motion”: 1.8 ± 0.7 pixels/frame (locomotor activity in dark; Danio rerio larvae, 7 dpf, well of 10 larvae; 10 µM, minute 5, dark).
`Oc1cccc(C2NCCc3cc(O)c(O)cc32)c1` (stereo not shown) gave an IC50 of 22.4 µM (DPPH scavenging, absorbance; 30 min, dark).
For `COc1cc(/C=C2\CNC/C(=C\c3cc(Cl)c(O)c(OC)c3)C2=O)cc(Cl)c1O`, NO release read “no effect” (BV-2, mouse; 1 µM, 24 h, together with: LPS; relative to: LPS model).
`Cc1ccc(S(=O)(=O)NN)cc1` gave a normalised absorbance of 0.71 (hydrazine ligation kinetics, absorbance; concentration not given, 15 s, together with: 2-formylphenylboronic acid).
`Cc1ncsc1-c1ccc(C(C)NC(=O)C2CC(O)CN2C(=O)C(NC(=O)CCCCCCCCCCN2CCCC(Nc3ncc(Cl)c(Nc4ccccc4S(=O)(=O)C(C)C)n3)C2)C(C)(C)C)cc1` (stereo not shown): “log2 fold change” -1.63 (22Rv1; RNA-seq, item: NAV3 mRNA; concentration not given; relative to: DMSO).
`COc1ccccc1C1CCN(CCC(=O)Nc2ccc(C)c(C)c2)CC1`: “third-quartile larval motion” 1.7 ± 0.5 pixels/frame (locomotor activity in dark; Danio rerio larvae, 7 dpf, well of 10 larvae; 10 µM, minute 5, dark).
With `COc1cc(O)ccc1CCC(c1ccc(O)cc1)c1cc2c(c(C)c1O)OC(c1ccc(O)cc1)CC2` (mixture of isomers) the amount was 53600 ± 13600 pg/mL blood (item: eicosapentaenoic acid; human whole blood; 3 µM, together with: Escherichia coli).
`CCOC(=O)C1CCN(CCC(=O)Nc2ccccc2F)CC1` — result for “third-quartile larval motion”: 0 pixels/frame (locomotor activity in dark; Danio rerio larvae, 7 dpf, well of 10 larvae; 10 µM, minute 5, dark).
Under “body weight loss”, `CC[C@H](C)[C@@H](C(=O)N[C@@H](CC(C)C)C(=O)N[C@@H](CO)C(=O)N[C@@H](CO)C(=O)N[C@H](C(=O)N[C@@H](CCC(=O)O)C(=O)N[C@H](C(=O)NCC(=O)N[C@@H](CO)C(=O)N[C@@H](CO)C(=O)N[C@H](C(=O)N1CCC[C@H]1C(N)=O)[C@@H](C)O)C(C)C)[C@@H](C)O)N(C)C(=O)[C@H](C)NC(=O)CN(C)C(=O)[C@H](Cc1ccccc1)NC(=O)[C@H](CO)NC(=O)[C@H](CO)NC(=O)[C@H](CCCNC(=N)N)NC(=O)[C@H](CCC(N)=O)NC(=O)[C@H](CC(C)C)NC(=O)[C@H](Cc1ccccc1)NC(=O)[C@H](Cc1c[nH]cn1)NC(=O)[C@H](C)NC(=O)[C@H](CC(C)C)NC(=O)[C@H](CCCNC(=N)N)NC(=O)[C@H](CCC(=O)O)NC(=O)[C@@H](NC(=O)[C@H](C)NC(=O)[C@@H]1CSSC[C@H](NC(=O)[C@H](CCCNC(=N)N)NC(=O)CC[C@H](NC(=O)CCCCCCCCCCCCCCCCCCC(=O)O)C(=O)O)C(=O)NCC(=O)N[C@@H]([C@@H](C)O)C(=O)N[C@@H](C)C(=O)N[C@@H]([C@@H](C)O)C(=O)N1)[C@@H](C)O` is recorded as 5.1 ± 0.2% (male Sprague-Dawley rats; subcutaneous, 30 nmol/kg single dose, 96 h).
The Iba1-positive area of `CCCCCCCCCCCCCCCC(=O)OCC(CSC[C@H](N)C(=O)N[C@@H](CO)C(=O)N[C@@H](CCCCN)C(=O)N[C@@H](CCCCN)C(=O)N[C@@H](CCCCN)C(=O)N[C@@H](CCCCN)C(=O)NCCCCCC(=O)N[C@@H](CCCCN)C(=O)N[C@@H](CC(C)C)C(=O)N[C@H](C(=O)N[C@@H](Cc1ccccc1)C(=O)N[C@@H](Cc1ccccc1)C(=O)N[C@@H](Cc1ccc2ccccc2c1)C(=O)O)C(C)C)OC(=O)CCCCCCCCCCCCCCC` (stereo partly shown) is reported as 33.9% and 35% and 37.3% (APP/PS1 transgenic mouse, cortex; intracortical injection, dose not given).
For `Oc1cc2c(cc1O)C(c1ccco1)NCC2` (stereo not shown), the IC50 was 15.2 µM (DPPH scavenging, absorbance; 30 min, dark).
`NC[C@@H](C(=O)Nc1ccc(-c2cn[nH]c2)cc1)c1ccccc1` has an IOP of 15.3 mmHg (tonometry; Macaca cyclopis, ocular normotensive; ocular, 0.1%, 56 h).
With `CCOC(=O)C1=C(CSC2=NCCS2)NC(=O)NC1c1ccccc1` (stereo not shown) the IC50 was 37.8 µM (DPPH scavenging).

Repeated from above:
For `C[C@@H]1O[C@@H](OC[C@H]2O[C@@H](Oc3c(-c4ccc(O)cc4)oc4cc(O)cc(O)c4c3=O)[C@H](O[C@@H]3O[C@@H](C)[C@H](O)[C@@H](O)[C@H]3O)[C@@H](O)[C@@H]2O)[C@H](O)[C@H](O)[C@H]1O`, lipid content read “decreased” (Oil Red O; 3T3-L1, mouse; 5 µM, day 8).
`COc1cccc(OCC(O)CN2CCN(c3ccccc3OC)CC2)c1` (stereo not shown): “third-quartile larval motion” 8.5 ± 1.6 pixels/frame (locomotor activity in dark; Danio rerio larvae, 7 dpf, well of 10 larvae; 10 µM, minute 7, dark).
